Published values from different studies.
Compare with care: the assays were run in different laboratories. “And” joins repeats or separate records; there may be more than shown.
FGFR3: Fibroblast growth factor receptor 3 (FGFR3, Homo sapiens, UniProt P22607)

Structure (SMILES) | target | test | test system | setting | how to read | endpoint | result
Nc1ncc(-c2cc(-c3cnn(CC(F)(F)F)c3)ncc2F)nc1C(=O)NC1CNCC(F)C1 (stereo not drawn) | FGFR3 | enzyme activity | – | 1 µM | relative to: DMSO control | remaining activity | 93.5%
CNC(=O)C[C@H](Cc1ccc(C#N)cc1)NC(=O)c1cc(-c2ccc(CN[C@H](C)c3ccc(C)cc3)o2)ccc1Cl | FGFR3 | enzyme activity, inhibitor | – | 1 µM | – | activity vs control | 91%
Cc1nc2c(F)cc(-c3nc(Nc4ccc(CNC(=O)CCCCCCC(=O)NO)cc4)ncc3F)cc2n1C(C)C | FGFR3 | enzyme activity, inhibitor | – | 1 µM | – | inhibition | 30%
NC(=O)[C@@H](O)C[C@H]1CCc2sc3ncnc(O[C@H]4CC[C@H](N5CCOCC5)CC4)c3c21 | FGFR3 | enzyme activity, inhibitor | – | 10 µM | – | inhibition | 24%
O=c1c(-c2ccc(Cl)c(CN3CCOCC3)c2)coc2cc(O)ccc12 | FGFR3 | enzyme activity, inhibitor | – | 1 µM | – | remaining activity | 99%
N[C@H]1CC[C@H](Nc2nccc(-c3cccnc3Oc3ccc(NC(=O)NC4CC4)c4ccccc34)n2)CC1 | FGFR3 | kinobead competition pulldown | HEK293/HCT116 lysate mixture | 10 µM, 1 h, 4 °C | lower = stronger competition | log2 LFQ intensity | 20.9 and 19.6 and 20 and 20.2
CN1CCN(c2ccc(Nc3ncc(Cl)c(Nc4ccccc4P(C)(C)=O)n3)cc2Br)CC1 | FGFR3 | enzyme activity, inhibitor | – | 0.1 µM | – | inhibition | 27.7%
C=CC(=O)N1Cc2nc(-c3cc(-c4cc(Cl)cnc4Cl)c(F)cc3F)n(-c3ccncn3)c2C1 | FGFR3 | cell-free assay | – | 1 µM | – | inhibition | 7.4%
C=CC(=O)Nc1cccc(-c2cnc3[nH]cc(C(=O)NC(C)(C)C)c3n2)c1 | FGFR3 | enzyme activity, inhibitor | – | 0.1 µM | – | inhibition | 20%
COc1ccc(C(=O)/C=C/c2ccccc2-c2c[nH]c3ccc(C#N)cc23)c(O)c1 | FGFR3 | enzyme activity, inhibitor | – | 20 µM | – | inhibition | 0%
CCn1cc(C(=O)O)c(=O)c2c(N)c(F)c(NC3CCCCC3)cc21 | FGFR3 | kinase activity | – | 0.1 µM, together with: ATP at Km | – | inhibition | 0.4%
CSCC[C@H](NC(C)=O)C(=O)N[C@@H](CO)C(=O)N[C@@H](CO)C(=O)N1CCC[C@H]1C(=O)N1CCC[C@H]1C(=O)N[C@H]1CSCc2cc3cc(c2)CSC[C@@H](C(=O)N[C@@H](CC(C)C)C(=O)N[C@@H](CCCNC(=N)N)C(=O)N[C@@H](CCCNC(=N)N)C(=O)N[C@@H](Cc2ccc(O)cc2)C(=O)NCC(=O)N[C@@H](CO)C(=O)NCC(=O)N[C@@H](CO)C(=O)NCC(=O)N[C@@H](CO)C(=O)N[C@@H](CC(=O)O)C(=O)N[C@@H](Cc2ccc(O)cc2)C(=O)N[C@@H](CCCCN)C(=O)N[C@@H](CC(=O)O)C(=O)N[C@@H](CC(=O)O)C(=O)N[C@@H](CC(=O)O)C(=O)N[C@@H](CC(=O)O)C(=O)N[C@@H](CCCCN)C(N)=O)NC(=O)[C@H](CSC3)NC(=O)CNC(=O)[C@H](CC(C)C)NC(=O)[C@H]([C@@H](C)O)NC1=O | Fibroblast growth factor receptor 3, extracellular domain (FGFR3, Homo sapiens, UniProt P22607) | binding, biolayer interferometry | – | concentration not given | – | BLI response | 0.0516 RU

Some of these lines once more:
Structure (SMILES) | target | test | test system | setting | how to read | endpoint | result
Cc1nc2c(F)cc(-c3nc(Nc4ccc(CNC(=O)CCCCCCC(=O)NO)cc4)ncc3F)cc2n1C(C)C | FGFR3 | enzyme activity, inhibitor | – | 1 µM | – | inhibition | 30%
CNC(=O)C[C@H](Cc1ccc(C#N)cc1)NC(=O)c1cc(-c2ccc(CN[C@H](C)c3ccc(C)cc3)o2)ccc1Cl | FGFR3 | enzyme activity, inhibitor | – | 1 µM | – | activity vs control | 91%
